Experimental data pooled from the literature.
± marks the error that the study gave.

`CC1(C)CC(=O)C2=C(C1)Nc1cc(-c3ccccc3)ccc1NC2c1ccc(N2CCOCC2)cc1` (centres unmarked) gave an EC50 of 21.7 µM (SH-SY5Y; cell growth or viability, MTS).
`tetraglycine` has an EC50 of 1.9 µM (HLA-A*0201-restricted CD8 T-cell clone; TNF-alpha production; cross-presentation, added: peptide-loaded mature macrophage-derived DC).
`O=C1CCC(N2C(=O)c3cccc(NCCOCCOCCOCCN4CCN(c5ccc(-c6ccc7c(c6)C(=O)N(C(C(=O)Nc6nccs6)c6cc(F)ccc6F)C7)cc5)CC4)c3C2=O)C(=O)N1` (centres unmarked) gave an EC50 of 0.15 µM (Ba/F3 EGFR L858R/T790M; cell proliferation).
`CCN(CC)c1ccc(C2Nc3ccc(-c4ccccc4)cc3NC3=C2C(=O)CC(C)(C)C3)cc1` (centres unmarked) gave an EC50 of 11.4 µM (SH-SY5Y; cell growth or viability, MTS).
`CSc1ccc(/C=C2/C(C)=C(CC(=O)NCCN(C)C)c3cc(F)ccc32)cc1` — result for EC50: “inactive” (Jurkat E6.1; cell growth).
For `O=C(O)c1ccc(Nc2nc(-c3ccc4ccccc4c3)cs2)cc1O`, the EC50 was 4.6 to 4.9 µM (786-O; apoptosis, western blot, refers to: cleaved PARP, survivin; 24 h).
The EC50 of `CCCCN1CCN(C2CCCCC2)CC1` is reported as over 100 µM (pancreatic cancer cell lines; cell viability; 48 h, over all lines tested).
`fibronectin` has an EC50 of 0.004 µM (BHK; cell spreading on coated substance; coating concentration).
`O=C1c2c(O)ccc(O)c2C(=O)c2c(NCCNCCO)ccc(NCCNCCO)c21` has an EC50 of 0.19 µM (Trp53-null mouse neurospheres; cell proliferation; 72 h).
`insulin icodec` has an EC50 of 0.073 µM (COLO 205; DNA synthesis, agonist, 3H-thymidine incorporation; HSA 0%).
With `CCCCN(CCCC)c1ccc(C2Nc3ccc(-c4ccccc4)cc3NC3=C2C(=O)CC(C)(C)C3)cc1` (centres unmarked) the EC50 was over 50 µM (SH-SY5Y; cell growth or viability, MTS).
The EC50 of `N[C@@H](CS(=O)O)C(=O)O` is reported as 28 µM (cerebellar granule cells; neuroprotection).
For `CCN(CC)c1ccc(C2Nc3ccc(C(=O)c4ccccc4)cc3NC3=C2C(=O)CC(C)(C)C3)cc1` (centres unmarked), the EC50 was about 7 µM (SH-SY5Y; cell growth or viability, MTS).
The EC50 of `insulin human` is reported as 4.1e-05 µM (rat primary adipocytes; lipogenesis, agonist, [3H]glucose incorporation into lipid; 0.1% HSA).
`CS(=O)(=O)CCNCc1ccc(-c2ccc3ncnc(Nc4ccc(OCc5cccc(F)c5)c(Cl)c4)c3c2)o1` has an EC50 of 0.25 µM (MDA-MB-231/BCRP; topotecan antiproliferative enhancement, clonogenic; 24 h, added: 40 nM topotecan).
The EC50 of `CN(C)C(=S)N/N=C1\C(=O)Nc2ccccc21` is reported as over 18.3 µM (MIA PaCa-2; cell viability, MTT; 48 h).
For `CC1(C)CC(=O)C2=C(C1)Nc1cc(C(F)(F)F)ccc1NC2c1ccc(N2CCCCC2)cc1` (centres unmarked), the EC50 was under 20 µM (SH-SY5Y; cytoprotection; added: thapsigargin 7.5 µM).
The EC50 of `N[C@@H](CCS(=O)(=O)O)C(=O)O` is reported as 31 µM (cerebellar granule cells; neuroprotection).
For `O=C(Nc1nccs1)C(c1ccccc1)N1Cc2ccc(-c3ccc(N4CCNCC4)nc3)cc2C1=O` (centres unmarked), the EC50 was 4.9 µM (Ba/F3 EGFR L858R/T790M; cell proliferation).
`NC(=S)N/N=C1\C(=O)Nc2ccccc21` gave an EC50 of over 100 µM (pancreatic cancer cell lines; cell viability; 48 h, over all lines tested).
`CC1(C)CC(=O)C2=C(C1)Nc1cc(-c3ccccc3)ccc1NC2c1ccc(N2CCCC2)cc1` (centres unmarked) has an EC50 of 13.8 µM (SH-SY5Y; cell growth or viability, MTS).
With `CCNC(=O)Nc1ccc(S(=O)(=O)Oc2cccnc2C(C)C)cc1` the EC50 was 8 µM (THP-1 cells; CD11b+CD14+ differentiation, flow cytometry; 120 h).
`CC1(C)CC(=O)C2=C(C1)Nc1cc(Br)ccc1NC2c1ccc(N2CCCCC2)cc1` (centres unmarked) has an EC50 of 31.4 µM (SH-SY5Y; cell growth or viability, MTS).
With `[Au(mba)(PPh3)]` the EC50 was 5.52 ± 0.36 µM (MCF-10A; cell viability; 72 h).
With `CN(C)c1ccc(C2Nc3ccc(-c4ccccc4)cc3NC3=C2C(=O)CC(C)(C)C3)cc1` (centres unmarked) the EC50 was 21 µM (SH-SY5Y; cell growth or viability, MTS).
With `CC[C@H](C)[C@@H]1NC(=O)[C@H](Cc2ccc(O)cc2)NC(=O)[C@@H](N)CSSC[C@@H](C(=O)N2CCC[C@H]2C(=O)N[C@@H](CC(C)C)C(=O)NCC(N)=O)NC(=O)[C@H](CC(N)=O)NC(=O)[C@H](CCC(N)=O)NC1=O` the EC50 was 0.174 µM (hiPSC-derived cardiomyocytes; intracellular Ca2+ increase, FLIPR).
